Measurements of several laboratories.
A part holds a random share of what one study measured. Positions count from the first letter of the parent shown.

Study 1
Target: RNA binding protein fox-1 homolog 2, RRM domain, GST-SBP tag (RBFOX2, Homo sapiens, UniProt O43251-10, residues 100-194)
Technique: RNA Bind-n-Seq
Molecule type: RNA
Matrix: in vitro
Concentration: 365 nM
Setting: natural RNA segment, single round, ends assumed
Relative to: no-protein control
Direction: higher = stronger binding
Measurement: RBNS enrichment (R)
Target sequence (chain): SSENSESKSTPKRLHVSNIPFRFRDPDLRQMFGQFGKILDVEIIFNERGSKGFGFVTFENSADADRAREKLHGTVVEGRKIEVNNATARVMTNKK
Oligonucleotide = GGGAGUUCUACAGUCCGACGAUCGGGAGAAGCUGAAAGACCAAGACUCUUCCCAAGUUAGCUUGUCUCCUCUCCUGUCACCCUAAGAGCCACUGAGUUGUGUAGGGAUGAAGACUAUUGAAGACUCCAUUGCCUGGAAUUCUCGGGUGCCAA; result = 0.89
Oligonucleotide = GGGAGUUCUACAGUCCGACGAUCAGAUUGUCAAGGCGAUAGAAAACCACUGCCAGAAAGACCUGUAAGAAGGGAUUUGUUCUAUACGAGGCAACUGCAGUGAGUGCUUUUAAGGCUAUCCCUGUCGCACGUUGUGGAAUUCUCGGGUGCCAA; result = 0.57
Oligonucleotide = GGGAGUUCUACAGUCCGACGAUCGGGAGCUUUGCCCUUAGGGCUGUCCUCUGACUUGCCCUCAAAGUUCACCAAUUCGGCAACUCCAUGGAGACGGUCGUGUCACUCUCAGCCCCUGUUGCUAUUAAGUCAUGUGGAAUUCUCGGGUGCCAA; result = 0.342
Oligonucleotide = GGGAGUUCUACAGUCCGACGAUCGAAGAUCAGUCUAAGCUGCCACGGUGAUGAGACCUUCUCAUUAUGUAACUCUUGAUGGCAUUUCCCUUCUGAGUGAAGAUUUGAAAUAUGAUUGAUUAGAAUUGUGCUCUUGGAAUUCUCGGGUGCCAA; result = 0.339
Oligonucleotide = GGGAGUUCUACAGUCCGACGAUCGCAUGUACUGUCCUGUAGGAAAGAAAAUGUGGCUCUAGCUAUUGACCCAUACAGCUGUUGGAAUCUCUGCAAGUAUAUUUGCCUAAUAAAUUCUCUCUUUUGUUUAAACUUGGAAUUCUCGGGUGCCAA; result = 43.6
Oligonucleotide = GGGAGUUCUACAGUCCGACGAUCGGGACCAGCGGGCAUUUGUUUUCUUGCUGACUUUGCACCUCCUUUUUUCCCCAAACACUUUGCCAGCCACUGGUGGUCCCUGCUUUUCUGAGUACCAUGUUUCCAGGAGGUGGAAUUCUCGGGUGCCAA; result = 0.681
Oligonucleotide = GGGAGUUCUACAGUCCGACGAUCAGCUUGCUCUGACGUCACCCUCCUCUCCCCUGACUCCUGUCCUGAGAGCUGUGGAUGCCGCCUCCUGCCCUGCCUACCCCUGAAACGUGGGGAAUGGGGGCCCCAGGACAUGGAAUUCUCGGGUGCCAA; result = 0.457
Oligonucleotide = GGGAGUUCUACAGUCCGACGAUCAAAAAAUAGAGCCUGAGGGAUCUUUACUAGUUAUAAAGAUACAGAACUCUUUCAAAACCUUUUGAAAUUAACCUCUCACUAUACCAGUAUAAUUGAGUUUUCAGUGGGGCUGGAAUUCUCGGGUGCCAA; result = 0.382
Oligonucleotide = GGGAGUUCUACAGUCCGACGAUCCCUGGUAUCCUGAGUUUUACAUGUAGAUGCAUUCGCCUAUUUGAUUCAGAAAAAUAAACUUUCCCAAAAUGUGUCUGAACCACAAGAGCAUACAGUGGAAGUGCUACCUCUGGAAUUCUCGGGUGCCAA; result = 0.738
Oligonucleotide = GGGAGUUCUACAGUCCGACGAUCAAAGAAUAAAAGCAUGUACUUCACAGCUAGCAUGUUCACAGAUUUGAAAGAAGUUUCAUUAAAAGCACCAUUGCUUUCUGUACUGCGUCAGUGCCUCAUUGUAUCAUCCUUGGAAUUCUCGGGUGCCAA; result = 3.25
Oligonucleotide = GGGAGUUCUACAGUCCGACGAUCUUCUGUGACCUUUGAAGCCAGUCUCAGUGGUUUAGGCAGCUUUGCAGUUCUAACUCUAGCUAGAGGCCAGGCUGUGUGCAGAGCUAAAGCACAAAUGAGCAGUACAUCAGUGGAAUUCUCGGGUGCCAA; result = 0.314
Oligonucleotide = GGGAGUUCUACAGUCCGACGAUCUAGGAAGCUGGUGAUAUUAAUGCUUACUGUUCUAAUCCAGUGGCCAAGGUAUUAAGAAUUUGCAAGUAUUUUAGAUUUUCGAAAAUGAAUGAGAGAACUGUGUAAACACCUGGAAUUCUCGGGUGCCAA; result = 0.542

Study 2
Target: TAR DNA-binding protein 43, full length, His tag (TARDBP, Homo sapiens, UniProt Q13148, residues 1-414)
Technique: RNA Bind-n-Seq
Molecule type: RNA
Matrix: in vitro
Concentration: 20 nM
Setting: 6-mer, flanks averaged, single round
Added: 150 mM LiCl
Relative to: input library
Direction: higher = stronger binding
Measurement: 6-mer enrichment (R)
Oligonucleotide = AACCGG; result = 0.85
Oligonucleotide = UAGCUU; result = 0.912
Oligonucleotide = AAUAGU; result = 0.969
Oligonucleotide = GCUAGC; result = 0.909
Oligonucleotide = UGCGCC; result = 1.03
Oligonucleotide = AGUGAU; result = 0.981
Oligonucleotide = GCCUAG; result = 0.909
Oligonucleotide = AGUUUA; result = 1
Oligonucleotide = GCGAGA; result = 1.01
Oligonucleotide = UAAAGA; result = 0.833
Oligonucleotide = GAUCCC; result = 0.917
Oligonucleotide = ACGGGU; result = 0.981
Oligonucleotide = GGGCUA; result = 1.01
Oligonucleotide = CCAGAC; result = 0.833
Oligonucleotide = CCCACA; result = 0.98
Oligonucleotide = GAUAAC; result = 0.799
Oligonucleotide = CAUUCC; result = 0.872
Oligonucleotide = CAUAAU; result = 0.935
Oligonucleotide = GUGGAA; result = 1.15
Oligonucleotide = CCAUCG; result = 0.858
Oligonucleotide = GGUUGU; result = 1.3
Oligonucleotide = GUUGUA; result = 1.19
Oligonucleotide = ACCGUA; result = 0.846
Oligonucleotide = CUCUGU; result = 0.951
Oligonucleotide = CCCGUU; result = 1.01

Study 3
Target: PABPC1L2, full length, GST fusion (mouse, UniProt A0ABA7IW68)
Technique: RNAcompete
Molecule type: RNA
Matrix: in vitro
Concentration: 20 nM
Setting: 7-mer, probes averaged, single round
Relative to: mean of 7-mers
Direction: higher = stronger binding
Measurement: 7-mer Z-score
Construct (chain): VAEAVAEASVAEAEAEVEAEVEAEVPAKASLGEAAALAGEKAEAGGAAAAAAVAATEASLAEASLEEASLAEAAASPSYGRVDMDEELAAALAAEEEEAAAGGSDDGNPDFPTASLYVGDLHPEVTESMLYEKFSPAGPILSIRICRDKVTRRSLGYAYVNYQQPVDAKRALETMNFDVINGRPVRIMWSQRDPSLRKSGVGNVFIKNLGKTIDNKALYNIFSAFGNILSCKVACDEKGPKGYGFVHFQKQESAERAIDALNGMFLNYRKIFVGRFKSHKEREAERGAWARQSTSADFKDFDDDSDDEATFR
Oligonucleotide = GUUCUGG; result = -0.284
Oligonucleotide = CUCCUUA; result = -0.331
Oligonucleotide = UCGCUCC; result = -0.376
Oligonucleotide = AUCAAGC; result = -0.0264
Oligonucleotide = UUUACAC; result = -0.173
Oligonucleotide = CUUUCUG; result = -0.481
Oligonucleotide = CCGUUCU; result = -0.391
Oligonucleotide = AACUCGU; result = -0.012
Oligonucleotide = CUGAUCU; result = -0.304
Oligonucleotide = ACGAACU; result = 0.095
Oligonucleotide = CAAAGGU; result = 0.0678
Oligonucleotide = ACCCCGA; result = -0.257
Oligonucleotide = UCCGCUA; result = -0.211
Oligonucleotide = UUCAGAU; result = -0.112
Oligonucleotide = CAAGGCA; result = 0.224
Oligonucleotide = GCCCCCC; result = -0.556
Oligonucleotide = AACGCAU; result = -0.0736
Oligonucleotide = AGUGAGG; result = 0.00254

Study 4
Target: ABI1, truncated, D143A, DHFR fusion (Arabidopsis thaliana)
Technique: DHFR PCA, deep sequencing
Matrix: yeast
Setting: methotrexate growth selection, single substitutions
Added: (+)-ABA 17 µM
Relative to: wild-type fitted maximum
Direction: higher = stronger binding
Measurement: relative binding score
Starting sequence: PYL1, truncated, DHFR fusion (Arabidopsis thaliana); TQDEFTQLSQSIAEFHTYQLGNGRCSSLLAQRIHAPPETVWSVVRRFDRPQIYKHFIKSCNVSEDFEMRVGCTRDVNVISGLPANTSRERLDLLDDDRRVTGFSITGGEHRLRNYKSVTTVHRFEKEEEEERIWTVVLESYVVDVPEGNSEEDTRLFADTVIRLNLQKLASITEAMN; partner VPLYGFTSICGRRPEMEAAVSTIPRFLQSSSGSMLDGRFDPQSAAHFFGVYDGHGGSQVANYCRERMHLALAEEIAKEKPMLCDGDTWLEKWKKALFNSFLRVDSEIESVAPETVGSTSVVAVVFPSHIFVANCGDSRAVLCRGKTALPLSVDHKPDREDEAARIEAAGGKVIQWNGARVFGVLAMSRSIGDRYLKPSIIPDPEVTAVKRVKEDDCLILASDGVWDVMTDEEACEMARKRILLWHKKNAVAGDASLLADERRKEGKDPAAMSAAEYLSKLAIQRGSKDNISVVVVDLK
Substitution = S26F; result = 62.4%
Substitution = V137K; result = 9.38%
Substitution = T39G; result = 49.1%
Substitution = G148N; result = 63.5%
Substitution = L166T; result = -16.4%
Substitution = C25V; result = 89.4%
Substitution = M176H; result = 90.6%
Substitution = I12M; result = 56.4%
Substitution = F47D; result = -6.02%
Substitution = Q31M; result = 52.7%
Substitution = T17A; result = 52.5%
Substitution = V121D; result = -6.9%
Substitution = E174M; result = 55.3%

Study 5
Target: Interferon regulatory factor 3, full length, phosphomimetic (IRF3, Homo sapiens, UniProt Q14653, residues 1-427, S386D/S396D/S398D/S402D/T404D/S405D)
Sequence of UniProt Q14653 (whole entry, unmodified, looked up): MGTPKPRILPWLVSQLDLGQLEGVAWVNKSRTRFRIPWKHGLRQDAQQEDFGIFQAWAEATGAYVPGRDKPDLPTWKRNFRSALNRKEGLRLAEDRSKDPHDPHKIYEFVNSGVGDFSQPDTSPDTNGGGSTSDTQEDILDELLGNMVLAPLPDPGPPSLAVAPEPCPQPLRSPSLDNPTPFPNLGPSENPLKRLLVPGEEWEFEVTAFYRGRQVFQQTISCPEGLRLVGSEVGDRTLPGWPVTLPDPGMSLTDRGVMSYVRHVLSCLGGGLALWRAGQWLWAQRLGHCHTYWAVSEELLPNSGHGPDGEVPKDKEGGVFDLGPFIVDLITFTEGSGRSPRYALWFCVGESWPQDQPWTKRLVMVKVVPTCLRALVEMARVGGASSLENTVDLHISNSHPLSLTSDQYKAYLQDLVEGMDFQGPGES
Technique: protein-binding microarray
Molecule type: double-stranded DNA, one strand shown
Matrix: in vitro
Concentration: 2540 nM top
Setting: 60-bp whole probe
Added: salmon DNA 0.4 mg/ml
Relative to: random background probes
Direction: higher = stronger binding
Measurement: fitted relative affinity
Constant ends, left off below: GCCTAGCAC … GTCTTGATTCGCTTGACGCTGCTG
Oligonucleotide = AAGAGTTTCCCTCCCTGAGTGTGCTAG; result = 4.34 z-score
Oligonucleotide = TCATTTCTATCTCTGTTACTGTGCTAG; result = 2.87 z-score
Oligonucleotide = GACGAATTCAGTTTCGAGACGTGCTAG; result = 3.26 z-score
Oligonucleotide = CCAGGTTGGGAGGGGTAGGGGTGCTAG; result = -0.0658 z-score
Oligonucleotide = TCAAGTTTGACATCTTCAACTGTGCTA; result = -0.296 z-score
Oligonucleotide = CCGGGTTTCACCATGTTGGCGTGCTAG; result = 0.805 z-score
Oligonucleotide = TCAGTCTTCACTCTGCTACTGTGCTAG; result = 0.614 z-score
Oligonucleotide = TTAGATATCAGTCTCGATTGGTGCTAG; result = 1.14 z-score
Oligonucleotide = TTAGATCTCGGTCTCGGTTAGTGCTAG; result = 0.61 z-score
Oligonucleotide = GACGGTTTCCTTATCATGACGTGCTAG; result = 7.77 z-score

Repeated from above (study 4):
Substitution = T39G; result = 49.1%
Substitution = G148N; result = 63.5%
Substitution = L166T; result = -16.4%
Substitution = C25V; result = 89.4%
Substitution = M176H; result = 90.6%
Substitution = I12M; result = 56.4%
Substitution = F47D; result = -6.02%
Substitution = Q31M; result = 52.7%
Substitution = T17A; result = 52.5%
Substitution = V121D; result = -6.9%
